Measurements from different studies.
Values joined by “and” are separate records of one study, mostly repeats; a detail may differ. Numbers after ± are the reported error.

SMILES	assay	system	setting	scale	quantity	result
CCCCC1(CCCC)CN(c2ccccc2)c2cc(SC)c(OCC(=O)N[C@@H](C(=O)NCC(=O)O)c3ccccc3)cc2S(=O)(=O)C1	measured: HDL cholesterol	human, serum	2.5 mg once daily, day 5		serum HDL-C	55.2 mg/dL
CCCCCCn1c(O)c(N=NC(=O)c2ccccc2)c2ccccc21	drug discrimination	mouse trained THC 5.6 mg/kg vs vehicle	ip, 30 mg/kg		maximum THC-appropriate responding	77%
FC(F)(F)c1ccc2c(c1)[C@@H]1CNC[C@H]2C1	intermittent two-bottle choice	Wistar rat, 20% ethanol drinking	subcutaneous, 5 mg/kg, 24 h	baseline: ethanol over total fluid intake	ethanol preference	42 ± 4%
CC[C@H](C)[C@@H]1NC(=O)[C@@H]2CCCN2C(=O)[C@H](CC(C)C)NC(=O)[C@H](CC(C)C)NC(=O)CNC(=O)[C@@H](NC(=O)[C@@H](NC(=O)[C@H](CC(=O)O)NC(=O)CNC(=O)[C@@H](NC(=O)[C@H](C)NC(=O)CNC(=O)[C@H](CCCCN)NC(=O)[C@H](CC(C)C)NC(=O)[C@H](CC(C)C)NC(=O)[C@H](CCCCN)NC(=O)CNC(=O)[C@@H](NC(=O)[C@@H](N)CC(C)C)C(C)C)C(C)C)C(C)C)CSSC[C@@H](C(=O)O)NC1=O	RNA-seq, measured: Csf2rb mRNA	mouse traumatic brain injury, frontal cortex and hippocampus	dose not given	baseline: TBI plus compound vs TBI	log2 fold change	-2.77
C=CCNc1c(O)cc2c(O)c1C[C@@H](C)C[C@H](OC)[C@H](O)[C@@H](C)/C=C(\C)[C@H](OC(N)=O)[C@@H](OC)/C=C\C=C(/C)C(=O)N2	RECIST v1.0	human GIST	concentration not given, PR or SD at least 6 weeks		disease control rate	73%
COc1cc2nccc(Oc3ccc(NC(=O)c4cc5c(n(-c6ccccc6)c4=O)CCCC5=O)nc3)c2cc1OC		patients, with AML, R/R	dose not given, monotherapy		resistant disease treatment failure	65%
Clc1cc2c(cc1Cl)Oc1cc(Cl)c(Cl)cc1O2	RNA-Seq, measured: Ptgfr	female Sprague-Dawley rat, liver	10 µg/kg	baseline: vehicle	mRNA level	1.6 fold
CC(C)(C)CC(C)(C)c1ccc(OCCOCC[N+](C)(C)Cc2ccccc2)cc1		C57BL/6J mouse, male, hippocampal slices, Schaffer collateral-CA1	50 nM, 60 min	baseline: vehicle	fEPSP slope	increased
C[C@H]1O[C@@H](O[C@H]2CC[C@@]3(C)[C@@H](CC[C@]4(C)[C@@H]3C=C[C@]35OC[C@@]6(CCC(C)(C)C[C@H]63)[C@@H](O)C[C@]54C)[C@]2(C)CO)[C@H](O)[C@@H](O[C@@H]2O[C@H](CO)[C@@H](O)[C@H](O)[C@H]2O)[C@H]1O	measured: ACC-1	ethanol-fed mice, hepatic SIRT1 knockdown (AAV8-TBG-SIRT1), liver	dose not given, high dose, unit not given	baseline: AAV8-TBG-Null ethanol group	mRNA level	1.09 and 1 and 0.77 and 1.48 and 1.02
OC1CCN(c2ncnc3[nH]cc(-c4cccc(Cl)c4)c23)CC1	Western blot, measured: MOB1 Thr35 phosphorylation	C57BL/6 mice, liver	intraperitoneal, 20 mg/kg, 1 h	baseline: vehicle	phospho-MOB1 level	decreased
C[C@]12CC[C@H](O)C[C@H]1CC[C@@H]1[C@@H]2CC[C@]2(C)[C@@H](c3ccc(=O)oc3)CC[C@]12O		female nude mouse LCC2 xenograft	0.5 mg/kg, day 15, tamoxifen-resistant		tumour volume	82.3 mm3 and 96.3 mm3 and 89.9 mm3 and 81.1 mm3 and 123 mm3 and 68.6 mm3 and 101 mm3
Cc1nc(Nc2ccc(CC(=O)O)cc2)nc(Nc2ccc(F)c(C(F)(F)F)c2)c1C	measured: PPARα	C57BL/6J mice, high-fat diet, liver	intraperitoneal, 0.3 mg/kg daily, 60% fat diet 12 weeks, dosed last four	baseline: vehicle	mRNA level	decreased
COc1ccc2c(c1)CC[C@@H]1[C@@H]2CC[C@]2(C)[C@@H](NCCCCCCN3C(=O)C=CC3=O)CC[C@@H]12	calcium response, plateau	N2a, mouse	1 µM, together with: BzATP 300 µM		inhibition	18%
O=C1c2ccncc2C(=O)c2c1[nH]c1ccccc21		female monocrotaline PAH rat	dose not given	baseline: vehicle	Fulton index	decreased
CCCCC1CNC2CCc3ccc(OC)cc3C12.Cl (racemic)	memory retention, foot-shock T-maze avoidance	SAMP8 mice	intraperitoneal, 1.0 mg/kg daily	baseline: vehicle	trials to criterion	decreased
Cc1cccc(C)c1NC(=O)C1CCCCN1 (stereo not shown)	Aδ-fiber conduction, ex vivo single-fiber recording	C57BL/6 mouse, sciatic nerve trunk, PBS	15 mM, 10 min, pH 7.4		conduction velocity	no effect
CC[C@@H](C)[C@@H](NC(=O)[C@@H](Cc1ccc(O)cc1)NC(=O)[C@H]1CCCN1C(=O)[C@@H](CCCNC(=N)N)NC(=O)[C@H](N)Cc1c[nH]cn1)C(=O)N[C@H](C)C(=O)N[C@H](Cc1c[nH]cn1)C(=O)N[C@H](CCCNC(=N)N)C(=O)N[C@H](CCCCNC(=O)c1cccc(S(=O)(=O)F)c1)C(=O)N[C@H](Cc1ccc(O)cc1)C(=O)N[C@H](CO)C(=O)N[C@H](Cc1ccccc1)C(N)=O	ex vivo flow cytometry	MC-38 tumour-bearing mice, tumour	3.9 mg/kg	baseline: CD4+ T cells	IFN-γ+ CD4+ T cells	5.95% and 6.24% and 6.58% and 3.8%
CN1CCN(S(=O)(=O)c2cc([N+](=O)[O-])ccc2N(CCOS(C)(=O)=O)CCOS(C)(=O)=O)CC1		NSG mice, sample CH PDX	intraperitoneal, 25 mg/kg weekly x3		event-free survival	> 367 days
[Cl][Ru-]([Cl])([Cl])[Cl].[Na+].c1ccc2[nH]ncc2c1.c1ccc2[nH]ncc2c1	CT, RECIST 1.1	human	420 mg/m2		duration of response	19 weeks
Cc1cn(-c2cc(NC(=O)c3ccc(C)c(Nc4nccc(-c5cccnc5)n4)c3)cc(C(F)(F)F)c2)cn1		Homo sapiens	300 mg, 12 months	direction not given	ADAS-Cog score	33.9 ± 10.2
NNc1ccccc1	hydrazine ligation kinetics, absorbance		concentration not given, 10 s, together with: 2-formylphenylboronic acid		normalised absorbance	0.77
CS(=O)(=O)c1ccc(-c2nnc(/C=C/c3nnc(-c4ccc(C#N)cc4)o3)n2-c2ccccc2Cl)nc1	RNA-seq GSEA, measured: FALLER_ENTEROCYTE_PRO_MOUSE	organoids, small intestinal, Apc Q1405X, mouse	dose not given, wild-type organoids	baseline: DMSO, direction not given	normalized enrichment score	-2.41

A few entries again:
SMILES	assay	system	setting	scale	quantity	result
OC1CCN(c2ncnc3[nH]cc(-c4cccc(Cl)c4)c23)CC1	Western blot, measured: MOB1 Thr35 phosphorylation	C57BL/6 mice, liver	intraperitoneal, 20 mg/kg, 1 h	baseline: vehicle	phospho-MOB1 level	decreased
